Results pooled from the literature.
Every numbered part comes from another study and shows a few of its results, in no order. Positions count from the first letter of the parent shown.

Series 1
Target: CCNB3, cyclin fold, Cln2 fusion (human)
Technique: yeast growth competition, sequencing
Sample: yeast
Setting: weak parent motif
Relative to: not given
Direction: higher = stronger binding
Starting sequence: CDC25A docking peptide (human); PPHRRRLLFACSP; partner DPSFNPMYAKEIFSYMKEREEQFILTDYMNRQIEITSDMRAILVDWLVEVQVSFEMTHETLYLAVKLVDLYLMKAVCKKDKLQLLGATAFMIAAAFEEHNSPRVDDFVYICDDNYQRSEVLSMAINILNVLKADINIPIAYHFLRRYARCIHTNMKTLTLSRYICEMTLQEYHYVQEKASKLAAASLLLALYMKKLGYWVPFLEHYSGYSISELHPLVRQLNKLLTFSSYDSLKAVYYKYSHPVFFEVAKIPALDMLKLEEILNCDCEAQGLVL
Variant	normalised enrichment score
SPHRRRLLFACSP [P1S]	0.347
PPHRRRCLFACSP [L7C]	0.246
PPHRRRLLFACSK [P13K]	0.137
PPHSRRLLFACSP [R4S]	-0.119
PPHRRRLLFAVSP [C11V]	0.214
PPHRKRLLFACSP [R5K]	0.539
PPHRRRLLPACSP [F9P]	0.127
PPHRRRLLMACSP [F9M]	0.218
PPHRRRNLFACSP [L7N]	-0.0239
PPHRHRLLFACSP [R5H]	0.483
PPHRRRLFFACSP [L8F]	0.346
PPCRRRLLFACSP [H3C]	1.13
PPHRRRLLFSCSP [A10S]	0.135
PPHRNRLLFACSP [R5N]	-0.242
PPGRRRLLFACSP [H3G]	0.439
PPHRRRLLFARSP [C11R]	-0.229
PPHRRRLLAACSP [F9A]	0.307
PKHRRRLLFACSP [P2K]	0.132
PPHRRRLLFACTP [S12T]	0.297
PPHRARLLFACSP [R5A]	0.211
PPARRRLLFACSP [H3A]	0.259
NPHRRRLLFACSP [P1N]	0.105
PPTRRRLLFACSP [H3T]	0.276
PPHRRRLLFACSY [P13Y]	0.616
PNHRRRLLFACSP [P2N]	0.0339

Series 2
Target: HLF, bZIP domain (human)
Technique: DHFR protein complementation
Sample: yeast
Setting: single substitutions, most at no-binding floor
Relative to: wild-type JUN-FOS pair
Direction: higher = stronger binding
Starting sequence: JUN, bZIP domain (human); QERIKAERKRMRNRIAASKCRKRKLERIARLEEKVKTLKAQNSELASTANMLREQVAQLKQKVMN; partner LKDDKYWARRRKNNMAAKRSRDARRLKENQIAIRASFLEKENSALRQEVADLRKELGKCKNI
Variant	binding fitness [natural log]
A29I	-1.44
N42E	-1.51
S47T	-1.36
V56L	-1.44
V35E	-1.4
T37N	-1.23
I28K	-1.37
A29V	-1.4
E44F	-1.42
Q41G	-1.51
L38A	-1.45
V56W	-1.5
E32R	-1.35
T37D	-1.47
A29T	-1.45
E54G	-1.39
S47D	-1.25
L52I	-1.47
R30M	-1.46
E33H	-1.36
V35Y	-1.17
A46Q	-1.27
A40Q	-1.39
L31E	-1.56
E44T	-1.38

Series 3
Target: Ras GTPase-activating protein-binding protein 1, C-terminal RGG region (G3BP1, Homo sapiens, UniProt Q13283)
Sequence of UniProt Q13283 (whole entry, looked up): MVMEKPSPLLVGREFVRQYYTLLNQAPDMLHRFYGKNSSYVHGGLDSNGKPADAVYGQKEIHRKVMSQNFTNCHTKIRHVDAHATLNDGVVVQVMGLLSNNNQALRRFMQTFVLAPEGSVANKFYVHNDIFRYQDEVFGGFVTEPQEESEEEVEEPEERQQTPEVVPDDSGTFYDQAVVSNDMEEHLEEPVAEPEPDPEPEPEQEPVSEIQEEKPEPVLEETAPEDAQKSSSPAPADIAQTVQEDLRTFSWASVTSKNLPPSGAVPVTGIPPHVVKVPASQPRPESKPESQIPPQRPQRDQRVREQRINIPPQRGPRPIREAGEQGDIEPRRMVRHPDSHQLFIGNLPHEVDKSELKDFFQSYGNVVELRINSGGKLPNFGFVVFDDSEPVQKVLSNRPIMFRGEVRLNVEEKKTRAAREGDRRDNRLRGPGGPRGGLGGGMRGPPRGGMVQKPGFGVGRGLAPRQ
Technique: RNA Bind-n-Seq
Form: RNA
Sample: in vitro
Concentration: 1 µM
Setting: whole 134-nt RNA, ends assumed
With: 150 mM KCl
Relative to: input library
Direction: higher = stronger binding
Oligonucleotide	log2 enrichment
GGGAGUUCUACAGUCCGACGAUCCAAGUCCUGUGCUACACAUCGUAUGUACCGAAUCGGGGUUUGGUUUGGUUUGGGGAAAGUAUUAUGUUACGCCGUUCGGAUCUGCACUUCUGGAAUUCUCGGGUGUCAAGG	-0.905
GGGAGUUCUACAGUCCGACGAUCGUCCUGUGCUACACAUCGUAUGUACCGAAUCGGGUUUUUGGGUUUUUGGGAAAAAGGGAAAGUAUUAUGUUACGCCGUUCGGAUCUGCACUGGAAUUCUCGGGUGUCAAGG	-0.67
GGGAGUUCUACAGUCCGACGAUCCCUGUGCUACACAUCGUAUGUACCGAAUCGGGGAAAAAAGGGAAAAAAGGGAAAAAAGGGGAAAGUAUUAUGUUACGCCGUUCGGAUCUGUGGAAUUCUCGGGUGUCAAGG	-1.32
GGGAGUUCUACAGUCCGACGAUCAGUCCUGUGCUACACAUCGUAUGUACCGAAUCGGCCCCCGGGCCCCCGGGCCCCCGGAAAGUAUUAUGUUACGCCGUUCGGAUCUGCACUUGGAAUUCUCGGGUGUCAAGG	-2.02
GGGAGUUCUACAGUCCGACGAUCCCUGUGCUACACAUCGUAUGUACCGAAUCGGGUUUUUUGGGUUUUUUGGGGUUUUUUGGGGAAAGUAUUAUGUUACGCCGUUCGGAUCUGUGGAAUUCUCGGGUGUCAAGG	-0.999
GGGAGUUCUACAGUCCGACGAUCCACAGACAACACGCACCCACACAGACACAGACGGAAGGGGUUGGGAUGGGGACAGGGUGCACAGCAGGGCGGGGUAGGACCCCAGCCCCUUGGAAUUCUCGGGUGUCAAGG	-0.163
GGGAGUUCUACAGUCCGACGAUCUCCUGUGCUACACAUCGUAUGUACCGAAUCGUGUGUGUGUGUGUGUGUGUGUGUGUGUGAAAGUAUUAUGUUACGCCGUUCGGAUCUGCAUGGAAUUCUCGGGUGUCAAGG	1.41
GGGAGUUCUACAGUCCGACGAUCCCUGUGCUACACAUCGUAUGUACCGAAUCGGGGUUUUUGGGGAAAAAAAGGGGAAAGGGGAAAGUAUUAUGUUACGCCGUUCGGAUCUGCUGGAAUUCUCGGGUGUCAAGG	1.03
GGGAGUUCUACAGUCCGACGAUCACCAUUCAGGUGGGCAUCUUUGGGAAGUGGGGCAAGGGGGGGAUAGGGAGGGGGGUAACACUUUGGGAACAGGUGGUCCCAGGUCGUUUCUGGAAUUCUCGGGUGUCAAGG	-1.14
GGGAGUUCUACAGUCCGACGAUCCCUCAAGUCCUGUGCUACACAUCGUAUGUACCGAAUCGGGGUGGGUGGGUGGGAAAGUAUUAUGUUACGCCGUUCGGAUCUGCACUUCCAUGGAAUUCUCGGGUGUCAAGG	1.22

Series 4
Target: Histone acetyltransferase KAT6A, winged helix 1, GST fusion (KAT6A, Homo sapiens, UniProt Q92794, residues 1-85)
Technique: protein binding microarray
Form: double-stranded DNA, one strand shown
Sample: in vitro
Concentration: not given
Setting: 8-mer, flanks averaged, mean of 2 arrays, mostly near background
Relative to: not given
Direction: higher = stronger binding
Construct (chain): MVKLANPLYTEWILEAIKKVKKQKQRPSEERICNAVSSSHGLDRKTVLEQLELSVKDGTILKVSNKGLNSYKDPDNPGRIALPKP
Oligonucleotide	E-score
CCCCTGGC	0.104
AACCCCAT	-0.178
ATGTATGC	0.00886
TATACACA	-0.0784
CGCTGGTC	0.243
GAGCAGCC	-0.0831
AACATCGG	0.1
GGCGTTCA	0.0338
GCTGGGCC	0.0709
CAAGGTGG	-0.151
GAGCTTAC	-0.0511
GATGCTCC	0.0573
CCGTTTTC	0.114
CCGTATGA	0.177
ATTCACAA	-0.181
GGCTTGAA	-0.0826
AAAAGGGG	0.0151
CCATGCCA	-0.107
CGCTTGTC	0.0817
CGACCGCA	0.254
AGCGGCAT	0.384
ATACCCGA	0.142
GCCCAATA	-0.0791
CAAATGGA	-0.142
CCCTGTCG	0.0563

Series 5
Target: ABI1, truncated, D143A, DHFR fusion (Arabidopsis thaliana)
Technique: DHFR PCA, deep sequencing
Sample: yeast
Setting: methotrexate growth selection, single substitutions
With: (+)-ABA 200 µM
Relative to: wild-type fitted maximum
Direction: higher = stronger binding
Starting sequence: PYL1, truncated, DHFR fusion (Arabidopsis thaliana); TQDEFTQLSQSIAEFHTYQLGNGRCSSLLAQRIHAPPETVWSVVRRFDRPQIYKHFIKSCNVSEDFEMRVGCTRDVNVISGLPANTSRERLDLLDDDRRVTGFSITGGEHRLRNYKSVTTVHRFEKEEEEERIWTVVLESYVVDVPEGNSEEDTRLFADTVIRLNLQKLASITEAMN; partner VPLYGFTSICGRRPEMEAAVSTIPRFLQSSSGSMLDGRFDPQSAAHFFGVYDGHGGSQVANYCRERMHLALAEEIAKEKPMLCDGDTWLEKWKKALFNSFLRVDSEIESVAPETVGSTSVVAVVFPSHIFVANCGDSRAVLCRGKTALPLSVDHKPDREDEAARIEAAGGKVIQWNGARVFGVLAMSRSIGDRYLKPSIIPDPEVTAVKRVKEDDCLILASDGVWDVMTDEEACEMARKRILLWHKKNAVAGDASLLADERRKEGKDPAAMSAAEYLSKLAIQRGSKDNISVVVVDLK
Variant	relative binding score
L164I	94.9%
E4Q	93.6%
V143F	18.1%
S140H	20.4%
V118R	105%
R132P	114%
R90L	68.3%
T39I	102%
T160W	76.1%
R98Q	96.1%
S11C	98.6%
R45F	-1.75%
A84Q	12.9%
K126L	105%
K126F	98.2%
L164W	92.2%

Excerpt of the above (series 5):
Variant	relative binding score
R45F	-1.75%
K126L	105%
T39I	102%
R90L	68.3%
K126F	98.2%
E4Q	93.6%
R98Q	96.1%
V118R	105%
V143F	18.1%
R132P	114%
L164I	94.9%
A84Q	12.9%
T160W	76.1%
